Measured values collected from several papers.
Numbered parts are unrelated; each lists some results of a single study.
UniProt P10721, sequence (whole entry, unmodified, looked up): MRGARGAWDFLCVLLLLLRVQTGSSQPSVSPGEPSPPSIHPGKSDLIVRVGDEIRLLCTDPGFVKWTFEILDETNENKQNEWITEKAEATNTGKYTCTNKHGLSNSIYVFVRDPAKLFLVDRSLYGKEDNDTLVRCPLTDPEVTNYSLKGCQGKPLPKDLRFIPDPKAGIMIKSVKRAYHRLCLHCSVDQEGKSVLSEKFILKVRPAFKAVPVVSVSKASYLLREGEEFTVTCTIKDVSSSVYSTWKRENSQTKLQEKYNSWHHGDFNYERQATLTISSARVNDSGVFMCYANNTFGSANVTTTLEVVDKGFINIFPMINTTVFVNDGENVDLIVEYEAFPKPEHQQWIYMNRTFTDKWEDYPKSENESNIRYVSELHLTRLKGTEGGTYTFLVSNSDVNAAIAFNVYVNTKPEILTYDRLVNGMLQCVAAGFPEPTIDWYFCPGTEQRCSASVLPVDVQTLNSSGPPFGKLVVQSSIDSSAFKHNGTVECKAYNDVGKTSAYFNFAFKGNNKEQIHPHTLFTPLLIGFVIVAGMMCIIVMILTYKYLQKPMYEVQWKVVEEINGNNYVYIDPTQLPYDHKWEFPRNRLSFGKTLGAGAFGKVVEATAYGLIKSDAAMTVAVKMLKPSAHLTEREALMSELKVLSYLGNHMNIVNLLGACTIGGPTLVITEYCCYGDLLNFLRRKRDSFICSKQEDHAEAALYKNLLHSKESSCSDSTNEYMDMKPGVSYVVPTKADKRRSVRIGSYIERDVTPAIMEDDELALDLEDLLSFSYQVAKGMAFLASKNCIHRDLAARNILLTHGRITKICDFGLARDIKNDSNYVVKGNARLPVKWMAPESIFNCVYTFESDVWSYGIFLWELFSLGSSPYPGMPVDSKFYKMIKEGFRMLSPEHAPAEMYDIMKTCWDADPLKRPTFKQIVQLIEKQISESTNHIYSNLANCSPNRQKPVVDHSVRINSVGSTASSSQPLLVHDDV
UniProt Q13976, sequence (whole entry, looked up): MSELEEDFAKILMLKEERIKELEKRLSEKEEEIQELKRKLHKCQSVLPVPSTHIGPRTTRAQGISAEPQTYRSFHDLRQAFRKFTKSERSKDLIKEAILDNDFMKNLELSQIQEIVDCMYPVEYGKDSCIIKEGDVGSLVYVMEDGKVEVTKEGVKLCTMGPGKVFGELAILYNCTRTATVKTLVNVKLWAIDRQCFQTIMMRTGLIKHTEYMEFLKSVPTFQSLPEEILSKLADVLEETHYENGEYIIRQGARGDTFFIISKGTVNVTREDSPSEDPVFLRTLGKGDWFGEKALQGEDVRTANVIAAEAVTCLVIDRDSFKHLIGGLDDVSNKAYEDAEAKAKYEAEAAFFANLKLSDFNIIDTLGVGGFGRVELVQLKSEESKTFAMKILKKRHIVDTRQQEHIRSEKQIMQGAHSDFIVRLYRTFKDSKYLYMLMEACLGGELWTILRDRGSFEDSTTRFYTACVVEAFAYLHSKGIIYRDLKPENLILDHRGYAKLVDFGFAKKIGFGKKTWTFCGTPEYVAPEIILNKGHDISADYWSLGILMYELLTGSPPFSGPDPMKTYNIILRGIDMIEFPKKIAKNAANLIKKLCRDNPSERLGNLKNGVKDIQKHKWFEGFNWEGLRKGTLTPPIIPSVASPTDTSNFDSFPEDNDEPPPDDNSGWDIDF
UniProt Q9NYY3, sequence (whole entry, looked up): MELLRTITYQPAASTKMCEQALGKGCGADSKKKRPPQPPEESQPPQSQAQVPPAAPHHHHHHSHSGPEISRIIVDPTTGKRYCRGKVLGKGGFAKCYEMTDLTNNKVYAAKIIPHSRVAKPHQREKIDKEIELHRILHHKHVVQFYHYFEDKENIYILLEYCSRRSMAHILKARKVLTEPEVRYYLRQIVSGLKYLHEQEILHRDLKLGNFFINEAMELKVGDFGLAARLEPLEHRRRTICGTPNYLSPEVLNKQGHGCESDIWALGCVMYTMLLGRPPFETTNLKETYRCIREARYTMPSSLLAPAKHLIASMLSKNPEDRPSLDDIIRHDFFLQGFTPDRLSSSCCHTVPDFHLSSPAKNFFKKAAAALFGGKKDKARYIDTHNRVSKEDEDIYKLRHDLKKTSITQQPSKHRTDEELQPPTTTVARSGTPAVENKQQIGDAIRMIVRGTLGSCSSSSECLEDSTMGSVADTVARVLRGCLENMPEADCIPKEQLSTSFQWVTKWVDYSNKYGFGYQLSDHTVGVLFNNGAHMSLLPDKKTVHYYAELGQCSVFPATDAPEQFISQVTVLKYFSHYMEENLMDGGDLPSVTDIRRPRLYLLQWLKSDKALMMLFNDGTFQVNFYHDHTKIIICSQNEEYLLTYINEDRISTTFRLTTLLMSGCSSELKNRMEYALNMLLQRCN
UniProt P68400, sequence (whole entry, looked up): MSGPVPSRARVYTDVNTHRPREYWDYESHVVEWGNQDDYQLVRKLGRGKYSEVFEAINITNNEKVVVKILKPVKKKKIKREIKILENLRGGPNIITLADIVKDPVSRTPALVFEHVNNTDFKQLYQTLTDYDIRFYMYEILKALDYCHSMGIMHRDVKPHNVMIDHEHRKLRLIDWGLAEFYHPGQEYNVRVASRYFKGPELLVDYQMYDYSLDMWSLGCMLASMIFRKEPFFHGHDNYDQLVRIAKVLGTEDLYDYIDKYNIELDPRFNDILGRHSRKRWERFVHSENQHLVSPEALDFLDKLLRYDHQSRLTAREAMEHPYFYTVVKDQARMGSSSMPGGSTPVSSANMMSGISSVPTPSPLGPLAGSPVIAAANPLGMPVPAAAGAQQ
UniProt Q9NRM7, sequence (whole entry, looked up): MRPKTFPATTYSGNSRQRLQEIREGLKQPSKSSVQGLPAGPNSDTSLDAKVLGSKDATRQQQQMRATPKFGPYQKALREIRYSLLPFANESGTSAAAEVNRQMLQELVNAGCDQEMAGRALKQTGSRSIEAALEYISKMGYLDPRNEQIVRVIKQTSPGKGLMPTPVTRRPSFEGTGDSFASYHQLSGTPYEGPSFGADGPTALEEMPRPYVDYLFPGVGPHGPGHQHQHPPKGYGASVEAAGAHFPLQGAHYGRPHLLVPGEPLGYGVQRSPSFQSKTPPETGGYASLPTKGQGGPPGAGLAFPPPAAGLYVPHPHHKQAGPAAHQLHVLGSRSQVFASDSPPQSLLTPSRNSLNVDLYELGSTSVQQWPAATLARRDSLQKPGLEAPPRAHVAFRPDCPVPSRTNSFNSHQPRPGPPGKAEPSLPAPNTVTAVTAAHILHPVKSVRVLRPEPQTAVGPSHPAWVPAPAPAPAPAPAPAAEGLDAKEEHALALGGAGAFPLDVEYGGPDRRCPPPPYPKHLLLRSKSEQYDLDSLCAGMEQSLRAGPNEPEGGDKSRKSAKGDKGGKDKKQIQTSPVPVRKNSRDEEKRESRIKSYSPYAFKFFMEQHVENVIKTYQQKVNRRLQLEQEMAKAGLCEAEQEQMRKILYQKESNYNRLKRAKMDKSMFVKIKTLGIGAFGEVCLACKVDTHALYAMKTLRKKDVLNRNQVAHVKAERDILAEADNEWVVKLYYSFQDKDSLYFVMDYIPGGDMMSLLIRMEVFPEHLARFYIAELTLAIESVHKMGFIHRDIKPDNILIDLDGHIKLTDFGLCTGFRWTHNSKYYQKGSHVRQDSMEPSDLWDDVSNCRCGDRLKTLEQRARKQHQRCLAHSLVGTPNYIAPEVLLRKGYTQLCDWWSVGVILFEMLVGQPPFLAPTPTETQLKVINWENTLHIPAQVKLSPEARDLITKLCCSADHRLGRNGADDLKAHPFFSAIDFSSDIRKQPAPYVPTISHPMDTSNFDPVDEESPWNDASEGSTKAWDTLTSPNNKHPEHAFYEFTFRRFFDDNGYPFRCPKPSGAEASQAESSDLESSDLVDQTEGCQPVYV
UniProt P52564, sequence (whole entry, looked up): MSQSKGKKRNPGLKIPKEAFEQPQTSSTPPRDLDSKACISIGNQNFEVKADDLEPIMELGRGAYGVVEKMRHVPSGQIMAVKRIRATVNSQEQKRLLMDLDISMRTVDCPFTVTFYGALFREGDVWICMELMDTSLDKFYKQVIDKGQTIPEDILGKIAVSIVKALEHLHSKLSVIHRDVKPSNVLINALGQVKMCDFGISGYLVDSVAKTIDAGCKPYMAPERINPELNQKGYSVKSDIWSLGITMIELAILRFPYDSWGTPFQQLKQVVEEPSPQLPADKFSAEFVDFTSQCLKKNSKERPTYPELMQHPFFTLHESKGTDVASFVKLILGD
UniProt O15264, sequence (whole entry, looked up): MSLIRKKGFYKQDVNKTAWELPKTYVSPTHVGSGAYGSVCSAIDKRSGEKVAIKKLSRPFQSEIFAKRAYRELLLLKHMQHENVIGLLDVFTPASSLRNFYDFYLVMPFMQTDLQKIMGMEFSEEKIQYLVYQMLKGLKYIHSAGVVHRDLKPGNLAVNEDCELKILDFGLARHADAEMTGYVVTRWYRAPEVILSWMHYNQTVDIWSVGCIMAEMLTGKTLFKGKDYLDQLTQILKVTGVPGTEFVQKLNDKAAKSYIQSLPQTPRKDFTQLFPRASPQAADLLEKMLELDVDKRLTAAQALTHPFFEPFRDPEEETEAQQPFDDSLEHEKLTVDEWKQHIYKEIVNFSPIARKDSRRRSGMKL

Set 1
SMILES: O=C1NC(=O)c2c1c1c3ccccc3[nH]c1n1cncc21
Observed: enzyme activity
Mode: inhibitor
Tested at: 0.5 µM
Reference: control
| target | remaining activity |
| --- | --- |
| NEK4 (Homo sapiens, UniProt P51957) | 88.4% |
| PRKCD (Homo sapiens, UniProt Q05655) | 65% |
| PRKCI (Homo sapiens, UniProt P41743) | 82.3% |
| MKNK2 (Homo sapiens, UniProt Q9HBH9) | 35% |
| WNK2 (Homo sapiens, UniProt Q9Y3S1) | 86.6% |
| CSNK1A1 (Homo sapiens, UniProt P48729) | 51.6% |
| CSNK2A1 (Homo sapiens, UniProt P68400) | 52.6% |
| PLK2 (Homo sapiens, UniProt Q9NYY3) | 63.8% |
| Cyclin-dependent kinase 9, with cyclin T1 (CDK9, Homo sapiens, UniProt P50750) | 82.9% |
| BTK (Homo sapiens, UniProt Q06187) | 83.9% |
| LRRK2 (Homo sapiens, UniProt Q5S007) | 61.3% |
| CHEK1 (Homo sapiens, UniProt O14757) | 24.6% |
| AKT3 (Homo sapiens, UniProt Q9Y243) | 94.3% |
| MAP2K6 (Homo sapiens, UniProt P52564) | 65.7% |
| MAP4K2 (Homo sapiens, UniProt Q12851) | 51.8% |
| EPHA5 (Homo sapiens, UniProt P54756) | 92% |
| MAPK13 (Homo sapiens, UniProt O15264) | 107% |
| PRKG1 (Homo sapiens, UniProt Q13976) | 93.8% |
| MAPK12 (Homo sapiens, UniProt P53778) | 85.9% |
| IRAK4 (Homo sapiens, UniProt Q9NWZ3) | 84.8% |
| KIT (Homo sapiens, UniProt P10721) | 38% |
| LYN (Homo sapiens, UniProt P07948) | 94.8% |

Set 2
Compound: CC(=O)c1c(NS(C)(=O)=O)c2cc(-c3ccc(Cl)cc3)c(-c3ccc(Cl)cc3Cl)nc2n(C)c1=O
Observed: cell-free assay
Technique: competition with immobilised ligand
Tested at: 1 µM
| target | remaining binding |
| --- | --- |
| PIK3CA (Homo sapiens, UniProt P42336, H1047Y) | 96% |
| DYRK1A (Homo sapiens, UniProt Q13627) | 77% |
| STK4 (Homo sapiens, UniProt Q13043) | 100% |
| MAP2K7 (Homo sapiens, UniProt O14733) | 100% |
| PIK3C2B (Homo sapiens, UniProt O00750) | 100% |
| PLK2 (Homo sapiens, UniProt Q9NYY3) | 96% |
| LATS2 (Homo sapiens, UniProt Q9NRM7) | 78% |
| KIT (Homo sapiens, UniProt P10721, L576P) | 99% |
| CAMK2A (Homo sapiens, UniProt Q9UQM7) | 100% |
| PRKG1 (Homo sapiens, UniProt Q13976) | 75% |
| SNRK (Homo sapiens, UniProt Q9NRH2) | 98% |
| MAP3K11 (Homo sapiens, UniProt Q16584) | 100% |
| NEK10 (Homo sapiens, UniProt Q6ZWH5) | 99% |

Set 3
Target: Beta-1 adrenergic receptor (ADRB1, Homo sapiens, UniProt P08588)
UniProt P08588, sequence (whole entry, looked up): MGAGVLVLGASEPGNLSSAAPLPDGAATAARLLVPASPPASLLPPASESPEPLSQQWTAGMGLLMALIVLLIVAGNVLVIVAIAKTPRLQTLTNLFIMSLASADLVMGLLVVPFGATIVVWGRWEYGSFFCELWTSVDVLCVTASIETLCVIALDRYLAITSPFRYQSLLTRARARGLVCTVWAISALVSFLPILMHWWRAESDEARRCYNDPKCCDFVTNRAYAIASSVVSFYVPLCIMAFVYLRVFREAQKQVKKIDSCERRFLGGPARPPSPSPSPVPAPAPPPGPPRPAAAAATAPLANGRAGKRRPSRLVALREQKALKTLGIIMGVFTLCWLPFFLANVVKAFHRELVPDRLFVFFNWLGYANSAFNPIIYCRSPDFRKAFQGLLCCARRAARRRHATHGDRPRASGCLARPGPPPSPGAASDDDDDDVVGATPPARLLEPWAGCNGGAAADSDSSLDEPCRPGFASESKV
Mode: agonist
| Structure (SMILES) | EC50 [µM] |
| --- | --- |
| Cc1cc(=O)oc2cc(NC(=O)[C@H](CCC(=O)O)NC(=O)[C@H](CC(C)C)NC(=O)[C@H](CC(C)C)NC(=O)OCc3ccccc3)ccc12 | ≥ 100 |
| OC(c1ccccc1)c1nc(Nc2ccc(C(F)(F)F)cc2)n[nH]1 (stereo not shown) | ≥ 100 |
| Cc1noc2c(Nc3ccc(N4CCOCC4)cc3)cc(-c3cccs3)nc12 | ≥ 100 |
| Nc1ncnc2nc(-c3ccc(N4CCOCC4)nc3)cc(-c3cccc(Br)c3)c12 | ≥ 100 |
| Cc1c(CN2CCC(Nc3ncnc4sc(CC(F)(F)F)cc34)CC2)ccc2c1cc(C#N)n2Cc1cn[nH]c1 | ≥ 100 |
| CN(C)CC(O)c1cc2n(n1)CCN(C(=O)CCc1ccc(=O)[nH]n1)C2 (stereo not shown) | ≥ 100 |

Set 4
Cell line: HaCaT
Tested at: 100 µM
Time: 18 h
| Compound | viability [%] |
| --- | --- |
| Cc1[nH]c2ccccc2c1CCNCc1ccc(/C=C/C(=O)NO)cc1 | 19.3 |
| CN(C)CCC=C1c2ccccc2C=Cc2ccccc21 | 36.4 |
| COc1ccccc1OCC(O)COC(N)=O (stereo not shown) | 91.9 |
| COC(=O)c1ccc2c(c1)NC(=O)/C2=C(\Nc1ccc(N(C)C(=O)CN2CCN(C)CC2)cc1)c1ccccc1 | 89 |
| CCN1CCN(c2cc3c(cc2F)c(=O)c(C(=O)O)cn3C2CC2)CC1 | 121 |
| CC(=O)OCC[N+](C)(C)C | 95.4 |
| C[C@H]1[C@H](OC(=O)CCC(=O)O)O[C@@H]2O[C@@]3(C)CC[C@H]4[C@H](C)CC[C@@H]1[C@@]24OO3 | 86 |
| COc1ccc(-c2ccc3cc(C(=O)O)ccc3c2)cc1[C@]12C[C@H]3C[C@H](C[C@H](C3)C1)C2 | 24.9 |

For quick reference, copied from above (set 1):
| target | remaining activity |
| --- | --- |
| CHEK1 (Homo sapiens, UniProt O14757) | 24.6% |
| AKT3 (Homo sapiens, UniProt Q9Y243) | 94.3% |
| MAP2K6 (Homo sapiens, UniProt P52564) | 65.7% |
| MAP4K2 (Homo sapiens, UniProt Q12851) | 51.8% |
| EPHA5 (Homo sapiens, UniProt P54756) | 92% |
